Assay results pooled from the literature.
Numbered parts are unrelated; each lists some results of a single study. “And” joins repeats or separate records; there may be more than shown.
UniProt O14965, sequence (whole entry, looked up): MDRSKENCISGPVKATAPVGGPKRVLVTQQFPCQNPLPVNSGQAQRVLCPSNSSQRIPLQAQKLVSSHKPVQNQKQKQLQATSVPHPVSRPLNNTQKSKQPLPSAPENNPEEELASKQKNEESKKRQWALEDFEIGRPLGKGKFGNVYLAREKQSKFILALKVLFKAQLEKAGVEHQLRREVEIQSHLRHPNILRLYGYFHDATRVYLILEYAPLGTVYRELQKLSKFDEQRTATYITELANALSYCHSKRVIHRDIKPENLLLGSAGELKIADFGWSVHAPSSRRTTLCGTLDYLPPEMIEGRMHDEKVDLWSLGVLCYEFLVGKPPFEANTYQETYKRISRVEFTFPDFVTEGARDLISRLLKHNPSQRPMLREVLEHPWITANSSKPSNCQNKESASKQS
UniProt Q6P3R8, sequence (whole entry, looked up): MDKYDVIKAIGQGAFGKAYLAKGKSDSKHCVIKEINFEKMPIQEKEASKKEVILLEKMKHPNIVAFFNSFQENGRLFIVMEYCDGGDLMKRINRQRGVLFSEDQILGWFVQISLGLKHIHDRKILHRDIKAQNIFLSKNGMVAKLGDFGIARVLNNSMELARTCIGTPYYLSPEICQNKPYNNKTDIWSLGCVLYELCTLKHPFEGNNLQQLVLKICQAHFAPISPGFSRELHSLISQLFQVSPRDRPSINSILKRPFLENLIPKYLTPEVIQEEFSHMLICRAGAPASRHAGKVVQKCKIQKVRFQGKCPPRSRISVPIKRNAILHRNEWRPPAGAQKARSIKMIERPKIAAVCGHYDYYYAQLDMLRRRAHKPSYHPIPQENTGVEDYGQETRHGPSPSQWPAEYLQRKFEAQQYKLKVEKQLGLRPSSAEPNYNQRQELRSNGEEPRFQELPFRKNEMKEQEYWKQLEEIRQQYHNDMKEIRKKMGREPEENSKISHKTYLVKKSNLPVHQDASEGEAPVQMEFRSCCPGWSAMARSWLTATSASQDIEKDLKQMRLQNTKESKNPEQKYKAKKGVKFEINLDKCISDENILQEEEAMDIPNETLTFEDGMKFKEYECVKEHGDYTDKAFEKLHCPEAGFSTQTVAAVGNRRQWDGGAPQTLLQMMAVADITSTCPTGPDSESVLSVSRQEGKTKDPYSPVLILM
UniProt Q9BQI3, sequence (whole entry, looked up): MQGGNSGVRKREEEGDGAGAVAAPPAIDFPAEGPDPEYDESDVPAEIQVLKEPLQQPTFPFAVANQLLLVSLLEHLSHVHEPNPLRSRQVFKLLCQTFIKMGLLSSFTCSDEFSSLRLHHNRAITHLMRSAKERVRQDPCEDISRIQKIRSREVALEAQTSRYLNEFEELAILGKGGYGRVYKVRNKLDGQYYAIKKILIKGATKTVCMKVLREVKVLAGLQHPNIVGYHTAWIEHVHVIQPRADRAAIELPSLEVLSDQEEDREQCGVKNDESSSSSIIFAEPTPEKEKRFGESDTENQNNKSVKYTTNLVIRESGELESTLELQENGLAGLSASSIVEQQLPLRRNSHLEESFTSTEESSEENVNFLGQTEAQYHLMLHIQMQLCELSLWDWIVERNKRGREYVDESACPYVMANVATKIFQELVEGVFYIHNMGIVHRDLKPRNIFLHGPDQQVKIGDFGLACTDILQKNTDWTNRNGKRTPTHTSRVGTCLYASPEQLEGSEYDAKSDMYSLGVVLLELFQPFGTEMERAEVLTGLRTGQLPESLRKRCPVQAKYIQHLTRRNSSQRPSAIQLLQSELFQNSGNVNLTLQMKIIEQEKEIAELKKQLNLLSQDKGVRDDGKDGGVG
UniProt O15197, sequence (whole entry, looked up): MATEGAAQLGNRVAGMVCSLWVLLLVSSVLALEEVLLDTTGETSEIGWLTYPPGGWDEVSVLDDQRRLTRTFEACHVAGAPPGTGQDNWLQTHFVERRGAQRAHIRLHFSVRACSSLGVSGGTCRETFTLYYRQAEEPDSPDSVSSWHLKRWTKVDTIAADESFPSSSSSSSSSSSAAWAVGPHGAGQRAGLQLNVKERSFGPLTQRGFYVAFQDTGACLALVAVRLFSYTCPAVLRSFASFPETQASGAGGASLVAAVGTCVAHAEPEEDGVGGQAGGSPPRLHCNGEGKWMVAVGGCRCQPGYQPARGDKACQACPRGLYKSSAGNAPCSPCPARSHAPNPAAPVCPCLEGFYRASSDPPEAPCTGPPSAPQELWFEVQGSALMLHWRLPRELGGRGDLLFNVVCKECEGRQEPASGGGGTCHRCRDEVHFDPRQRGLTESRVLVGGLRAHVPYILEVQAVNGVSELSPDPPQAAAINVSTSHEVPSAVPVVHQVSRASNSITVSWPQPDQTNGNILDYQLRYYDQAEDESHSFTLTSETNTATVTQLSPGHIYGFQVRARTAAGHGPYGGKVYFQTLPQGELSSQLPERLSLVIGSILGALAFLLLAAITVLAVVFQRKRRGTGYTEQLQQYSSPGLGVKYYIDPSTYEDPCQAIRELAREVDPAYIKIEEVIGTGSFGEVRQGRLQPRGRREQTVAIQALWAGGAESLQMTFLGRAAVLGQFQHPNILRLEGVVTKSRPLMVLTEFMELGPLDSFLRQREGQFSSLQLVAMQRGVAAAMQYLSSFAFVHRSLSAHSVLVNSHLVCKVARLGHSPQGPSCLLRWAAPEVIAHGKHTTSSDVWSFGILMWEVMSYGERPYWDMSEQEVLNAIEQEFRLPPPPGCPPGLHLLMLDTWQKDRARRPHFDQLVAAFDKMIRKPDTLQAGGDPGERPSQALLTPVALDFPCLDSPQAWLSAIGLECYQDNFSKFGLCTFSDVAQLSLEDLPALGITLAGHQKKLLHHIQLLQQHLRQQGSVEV
UniProt Q9UM73, sequence (whole entry, unmodified, looked up): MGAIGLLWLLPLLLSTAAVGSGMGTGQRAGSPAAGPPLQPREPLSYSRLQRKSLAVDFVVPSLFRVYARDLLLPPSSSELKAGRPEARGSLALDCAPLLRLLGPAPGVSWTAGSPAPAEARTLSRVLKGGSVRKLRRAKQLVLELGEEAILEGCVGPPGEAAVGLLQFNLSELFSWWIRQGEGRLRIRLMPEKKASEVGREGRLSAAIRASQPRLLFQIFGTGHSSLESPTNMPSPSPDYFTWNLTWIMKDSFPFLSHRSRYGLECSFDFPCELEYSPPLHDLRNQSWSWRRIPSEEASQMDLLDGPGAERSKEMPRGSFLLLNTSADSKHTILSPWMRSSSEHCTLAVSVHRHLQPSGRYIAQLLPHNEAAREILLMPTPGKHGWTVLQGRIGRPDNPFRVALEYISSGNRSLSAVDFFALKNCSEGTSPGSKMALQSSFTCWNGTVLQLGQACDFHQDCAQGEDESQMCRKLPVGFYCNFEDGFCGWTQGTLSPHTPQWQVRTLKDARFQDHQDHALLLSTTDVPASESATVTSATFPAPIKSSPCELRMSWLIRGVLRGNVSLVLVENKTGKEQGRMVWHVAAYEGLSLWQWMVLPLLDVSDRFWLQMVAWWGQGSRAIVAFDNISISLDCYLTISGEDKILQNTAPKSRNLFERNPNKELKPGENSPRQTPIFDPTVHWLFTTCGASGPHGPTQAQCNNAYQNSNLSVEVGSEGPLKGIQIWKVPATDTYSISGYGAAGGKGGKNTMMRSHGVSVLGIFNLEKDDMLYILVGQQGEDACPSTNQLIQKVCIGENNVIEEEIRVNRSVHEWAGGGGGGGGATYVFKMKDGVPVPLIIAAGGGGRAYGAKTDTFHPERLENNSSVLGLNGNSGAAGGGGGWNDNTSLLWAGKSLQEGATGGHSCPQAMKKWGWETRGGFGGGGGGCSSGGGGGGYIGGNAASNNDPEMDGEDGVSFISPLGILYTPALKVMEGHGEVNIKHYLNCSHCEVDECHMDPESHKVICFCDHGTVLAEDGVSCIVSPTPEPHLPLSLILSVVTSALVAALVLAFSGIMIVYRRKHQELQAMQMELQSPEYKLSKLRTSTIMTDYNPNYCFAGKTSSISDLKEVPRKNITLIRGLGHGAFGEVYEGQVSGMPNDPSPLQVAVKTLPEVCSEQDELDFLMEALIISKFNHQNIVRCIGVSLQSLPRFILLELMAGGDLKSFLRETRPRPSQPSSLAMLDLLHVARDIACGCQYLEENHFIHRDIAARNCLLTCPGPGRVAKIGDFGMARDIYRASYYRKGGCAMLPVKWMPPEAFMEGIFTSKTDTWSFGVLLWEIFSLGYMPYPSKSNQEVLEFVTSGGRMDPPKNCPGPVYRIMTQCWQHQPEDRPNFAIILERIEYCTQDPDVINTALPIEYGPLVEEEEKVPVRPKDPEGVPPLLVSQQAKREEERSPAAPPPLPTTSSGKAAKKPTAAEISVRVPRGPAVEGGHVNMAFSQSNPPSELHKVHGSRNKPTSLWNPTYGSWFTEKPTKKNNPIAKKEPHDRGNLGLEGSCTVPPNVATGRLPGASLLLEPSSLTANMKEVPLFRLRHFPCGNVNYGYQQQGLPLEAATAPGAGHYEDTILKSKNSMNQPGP

Study 1 — read-out: enzyme activity; action: inhibitor; concentration: 0.5 µM; reference: control; quantity: remaining activity
Target: Phosphorylase b kinase gamma catalytic chain, liver/testis isoform (PHKG2, Homo sapiens, UniProt P15735)
Construct (P15735 1-406): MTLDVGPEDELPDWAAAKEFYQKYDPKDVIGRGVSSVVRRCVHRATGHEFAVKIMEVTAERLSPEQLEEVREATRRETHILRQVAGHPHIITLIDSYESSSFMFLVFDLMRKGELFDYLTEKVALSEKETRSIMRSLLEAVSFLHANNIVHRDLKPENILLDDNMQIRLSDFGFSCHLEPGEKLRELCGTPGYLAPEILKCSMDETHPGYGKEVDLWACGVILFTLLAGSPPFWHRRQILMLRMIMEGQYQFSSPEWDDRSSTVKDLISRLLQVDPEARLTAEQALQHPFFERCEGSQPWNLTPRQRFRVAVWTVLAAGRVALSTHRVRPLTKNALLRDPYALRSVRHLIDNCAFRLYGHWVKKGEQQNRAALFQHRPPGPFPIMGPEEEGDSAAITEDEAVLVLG
CC(=O)O/N=C1/C(c2c(O)[nH]c3cc(Br)ccc23)=Nc2ccccc21: 96.6%
Cn1cnc2cc3c(Nc4cccc(Br)c4)ncnc3cc21: 103%
CCOc1cc2ncnc(Nc3cccc(Br)c3)c2cc1OCC: 101%
COc1cc2ncnc(Nc3ccc(OCc4ccccc4)cc3)c2cc1OC: 97.4%
COc1ccc(Cl)cc1NC(=O)Nc1cc(C)nc2ccccc12: 98.6%
CCC(=O)Nc1ccc2ncnc(Nc3cccc(Br)c3)c2c1: 109%
CC(C)[C@H](CO)Nc1nc(Nc2cccc(Cl)c2)c2ncn(C(C)C)c2n1: 117%
CN(C)CCCn1cc(C2=C(c3c[nH]c4ccccc34)C(=O)NC2=O)c2ccccc21: 97.9%
Cn1cc(/C=C2\C(=O)Nc3ccc(S(N)(=O)=O)cc32)c2ccccc21: 52%
Cc1nc(Nc2ncc(C(=O)Nc3c(C)cccc3Cl)s2)cc(N2CCN(CCO)CC2)n1: 101%
COc1ccc(-c2cnc3c(-c4ccsc4)cnn3c2)cc1: 92.3%
O=C1NC(=O)/C(=C/c2ccc3nccnc3c2)S1: 97.4%
Nc1[nH]nc2nnc(-c3c(-c4ccccc4)nn4ccccc34)cc12: 82.6%
O=C(Nc1ccc(Cl)cc1)c1ccccc1NCc1ccncc1: 97.1%
CCN1/C(=C/C(C)=O)Sc2ccc(OC)cc21: 94.6%
C[S+]([O-])c1ccc(-c2nc(-c3ccncc3)c(-c3ccc(F)cc3)[nH]2)cc1 (centres unmarked): 102%
CC(C)c1nn(-c2c(Cl)cccc2Cl)c2nc(Cc3ccc(OCCO)cc3)[nH]c(=O)c12: 102%
COc1cc2ncc(-c3ccccc3)nc2cc1OC: 97.1%
O=c1cc(N2CCOCC2)oc2c1ccc1ccccc12: 99.8%
COc1cc2ncnc(N3CCN(C(=O)Nc4ccc(Oc5ccccc5)cc4)CC3)c2cc1OC: 128%

Study 2 — cell line: A-375; concentration: 100 µM; time: 18 h; quantity: viability
CN[C@@H]1[C@H](O)[C@H](NC)[C@H]2O[C@@]3(O)C(=O)C[C@@H](C)O[C@H]3O[C@@H]2[C@H]1O: 89.5% and 98%
Nc1ncn([C@@H]2O[C@H](CO)[C@@H](O)[C@H]2O)c(=O)n1: 47.8%
CC(C)OC(=O)C(C(=O)OC(C)C)=C1SC=CS1: 13.6%
CO/N=C(\C(=O)N[C@@H]1C(=O)N2C(C(=O)O)=C(CSc3nc(=O)c(=O)[nH]n3C)CS[C@H]12)c1csc(N)n1: 96.6%
C[C@]12CC[C@@H]3c4ccc(O)cc4CC[C@H]3[C@@H]1CC[C@@H]2O: 79.4%
CC(=O)OCC(=O)[C@@]1(O)CC[C@H]2[C@@H]3CCC4=CC(=O)CC[C@]4(C)[C@@]3(F)[C@@H](O)C[C@@]21C: 103%
CC1CCC(C(C)C)C(O)C1 (racemic): 81%
COc1ccc2c(c1)C(=O)N(CCc1ccc(S(=O)(=O)NC(=O)NC3CCCCC3)cc1)C(=O)C2(C)C: 68.3%
CC(=O)N[C@H]1[C@H]([C@H](O)[C@H](O)CO)OC(C(=O)O)=C[C@@H]1N=C(N)N: 102%

Study 3 — SMILES: CCOc1ccc(Nc2c3c(nc4ccccc24)CCC3)cc1; organism: Leishmania infantum; method: qPCR, delta Ct; host: golden hamster, infected; route: oral; dose: 10 mg/kg/day; time: 10 days; reference: microglobulin reference gene; quantity: relative mRNA level
measured: IL17; liver: 10.6 and 12.5 and 11.4 and 10.1 and 10.5
measured: TNF; spleen: -0.247 and -0.395 and -0.377 and -0.637 and -0.0422 and 0.014
measured: IFN-gamma; liver: 10.2 and 11.4 and 13.7 and 9.41 and 10.7
measured: IFN-gamma; spleen: 8.93 and 9.45 and 10.3 and 11.6
measured: TNF; liver: 1.05 and 1.16 and 4.77 and 1.51 and 1.11 and 2.17
measured: IL17; spleen: 7.88 and 9.2 and 8.56 and 8.92 and 8.22 and 8.69
measured: TGF-beta; liver: 2.54 and 4.59 and 0.927 and 1.26 and 1.42 and 1.37
measured: IL4; liver: 1.61 and 0.588 and 0.591 and 4.36 and 0.532 and 1.07

Study 4 — read-out: cell-free assay; method: competition with immobilised ligand; concentration: 0.1 µM; quantity: remaining binding
Compound: Cn1cc(Cl)c2c(Oc3c(F)cc(Nc4cc(Cl)nc(N)n4)cc3F)ccnc21
ALK tyrosine kinase receptor (ALK, Homo sapiens, UniProt Q9UM73, L1196M): 100%
Tyrosine-protein kinase Mer (MERTK, Homo sapiens, UniProt Q12866): 90%
Epidermal growth factor receptor (EGFR, Homo sapiens, UniProt P00533, L858R): 98%
Aurora kinase A (AURKA, Homo sapiens, UniProt O14965): 100%
Serine/threonine-protein kinase Nek5 (NEK5, Homo sapiens, UniProt Q6P3R8): 100%
Eukaryotic translation initiation factor 2-alpha kinase 1 (EIF2AK1, Homo sapiens, UniProt Q9BQI3): 100%
Ephrin type-B receptor 6 (EPHB6, Homo sapiens, UniProt O15197): 100%
